Measurements pooled from the literature.
Numbers after ± are the reported error.
TMED9: TMED9 (Homo sapiens, UniProt Q9BVK6)
GCGR: GCGR (Homo sapiens, UniProt P47871)
B1: ENAH EVH1 domain 1-113 (Homo sapiens, UniProt Q8N8S7); chain MSEQSICQARAAVMVYDDANKKWVPAGGSTGFSRVHIYHHTGNNTFRVVGRKIQDHQVVINCAIPKGLKYNQATQTFHQWRDARQVYGLNFGSKEDANVFASAMMHALEVLNS
Sequence of UniProt Q14155 (whole entry, looked up): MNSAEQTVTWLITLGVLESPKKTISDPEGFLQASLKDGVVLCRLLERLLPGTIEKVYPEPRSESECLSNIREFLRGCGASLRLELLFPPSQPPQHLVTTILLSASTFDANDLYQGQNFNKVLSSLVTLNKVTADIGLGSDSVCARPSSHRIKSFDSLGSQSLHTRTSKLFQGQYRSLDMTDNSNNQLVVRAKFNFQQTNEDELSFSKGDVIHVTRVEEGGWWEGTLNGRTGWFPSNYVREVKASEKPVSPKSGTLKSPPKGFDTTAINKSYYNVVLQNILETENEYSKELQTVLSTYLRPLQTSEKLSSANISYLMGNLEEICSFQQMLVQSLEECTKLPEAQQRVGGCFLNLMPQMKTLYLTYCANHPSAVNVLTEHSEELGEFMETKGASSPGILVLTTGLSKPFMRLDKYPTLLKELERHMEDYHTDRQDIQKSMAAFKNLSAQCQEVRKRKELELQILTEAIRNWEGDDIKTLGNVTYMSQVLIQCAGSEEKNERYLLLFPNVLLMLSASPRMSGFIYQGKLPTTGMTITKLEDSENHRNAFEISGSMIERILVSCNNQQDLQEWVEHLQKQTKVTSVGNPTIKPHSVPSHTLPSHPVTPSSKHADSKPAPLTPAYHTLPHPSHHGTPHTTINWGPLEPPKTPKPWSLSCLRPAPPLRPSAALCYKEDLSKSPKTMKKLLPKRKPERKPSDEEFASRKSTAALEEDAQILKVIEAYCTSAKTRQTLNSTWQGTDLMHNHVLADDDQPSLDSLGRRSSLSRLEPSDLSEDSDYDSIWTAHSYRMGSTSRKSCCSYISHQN
Sequence of UniProt P24530 (whole entry, looked up): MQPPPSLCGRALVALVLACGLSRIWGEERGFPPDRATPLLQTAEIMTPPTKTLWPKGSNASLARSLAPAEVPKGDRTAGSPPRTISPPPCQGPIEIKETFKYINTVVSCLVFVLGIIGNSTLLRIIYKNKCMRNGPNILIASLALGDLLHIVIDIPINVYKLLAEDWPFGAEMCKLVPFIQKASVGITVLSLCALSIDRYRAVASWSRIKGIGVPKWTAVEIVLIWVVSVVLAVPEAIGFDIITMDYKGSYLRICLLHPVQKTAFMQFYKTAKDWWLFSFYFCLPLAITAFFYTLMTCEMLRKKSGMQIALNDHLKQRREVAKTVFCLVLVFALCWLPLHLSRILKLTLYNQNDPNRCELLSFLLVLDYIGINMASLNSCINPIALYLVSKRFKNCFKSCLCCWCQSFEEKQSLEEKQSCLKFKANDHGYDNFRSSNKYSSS
Sequence of UniProt Q9Y2X7 (whole entry, looked up): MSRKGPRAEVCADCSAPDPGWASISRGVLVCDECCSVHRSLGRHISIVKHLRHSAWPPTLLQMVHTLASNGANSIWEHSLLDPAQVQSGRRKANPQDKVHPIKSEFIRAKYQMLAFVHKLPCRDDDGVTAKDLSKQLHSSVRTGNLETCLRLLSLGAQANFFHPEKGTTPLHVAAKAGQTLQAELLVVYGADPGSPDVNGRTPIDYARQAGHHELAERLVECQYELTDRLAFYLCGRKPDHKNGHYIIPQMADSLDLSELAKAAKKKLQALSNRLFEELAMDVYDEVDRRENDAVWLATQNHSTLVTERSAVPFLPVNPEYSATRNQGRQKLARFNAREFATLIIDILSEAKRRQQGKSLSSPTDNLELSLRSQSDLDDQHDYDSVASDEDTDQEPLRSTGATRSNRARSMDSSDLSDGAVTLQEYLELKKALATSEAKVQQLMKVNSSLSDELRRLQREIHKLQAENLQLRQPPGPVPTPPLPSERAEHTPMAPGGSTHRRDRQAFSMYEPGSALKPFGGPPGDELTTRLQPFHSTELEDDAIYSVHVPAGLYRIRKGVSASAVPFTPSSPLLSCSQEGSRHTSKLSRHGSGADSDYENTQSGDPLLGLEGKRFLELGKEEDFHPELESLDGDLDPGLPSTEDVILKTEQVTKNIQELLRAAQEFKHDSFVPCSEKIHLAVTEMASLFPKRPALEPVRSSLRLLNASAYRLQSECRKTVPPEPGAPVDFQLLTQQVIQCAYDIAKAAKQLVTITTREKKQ

TMED10 (Homo sapiens, UniProt P49755)  cross-linked residues (TMED9; cross-linking MS; cells; added: BSPNO): K145 to K160
B1 (ENAH EVH1 domain 1-113)  Kd (PCARE peptide (Homo sapiens); tryptophan fluorescence): 5700 nM
ubiquitin monomer, pS65 (UniProt P0CG48)  UB chain synthesis (PRKN (Homo sapiens, UniProt O60260); UB chain synthesis; baseline: background, higher = more activation): 943 fold
XPO1/RAN/RANBP1 GTP-bound Ran complex Q69L  Kd (UBTF (Homo sapiens, UniProt P17480); SPR): 1710 nM
CXCL12 (Homo sapiens, UniProt P48061-2)  EC50 (ACKR3 (UniProt P25106); β-arrestin complementation, agonist): 10 nM
CYP17A1 C22K/P23T/R20A/R21K (Homo sapiens)  Km (CC(=O)[C@H]1CC[C@H]2[C@@H]3CCC4=CC(=O)CC[C@]4(C)[C@H]3CC[C@]12C; steady-state kinetics; 37 °C, truncated form, added: progesterone 0 – 50 µM, phosphatidylcholine): 3.7 µM
SQETFSDLWKLLPENN  enrichment score (human cyclin E1-Cln2 fusion; cell growth, competitive growth sequencing; peptide, Saccharomyces cerevisiae; peptide tiling library; direction not given): 1.71
ARHGEF7 (Homo sapiens, UniProt Q14155)  cross-linked residues (GIT1 (Homo sapiens, UniProt Q9Y2X7); cross-linking MS; purified complex; added: DSSO): K692 to K131
ALB/factor IXa aptamer mature, cys34 conjugate K573P, Cys34 oligodeoxynucleotide, annealed aptamer duplex (Homo sapiens)  Kd (FCGRT fragment (Homo sapiens); BLI; pH 5.5, 150 mM NaCl): 280 ± 80 nM
glucagon  EC50 (GCGR; GCGR activation, CRE luciferase reporter, agonist; HEK293; stable human GCGR expression): 0.01 nM
tetraubiquitin (UniProt P0CG48)  EC50 (DDX58 N-terminal CARDs (Homo sapiens); IRF3 dimerization, activator; cell-free system; RIG-I(N)/Ub4 complex): 0.404 nM
APP Aβ1-42, HiLyte Fluor 488 label (UniProt P05067)  Kd (MAPT (Homo sapiens, UniProt P10636-8); fluorescence polarisation; without microtubules): 6300 ± 1700 nM
TMED10 (Homo sapiens, UniProt P49755)  cross-linked residues (TMED9; cross-linking MS; cell fractions; added: DSSO): K145 to K160
EDNRB (Homo sapiens, UniProt P24530)  mRNA recovery (endothelin-1 mature; RT-qPCR; baseline: non-biotinylated ligand, higher = more recovery): 248 fold
GCG glucagon (Homo sapiens)  EC50 (GCGR; receptor stimulation, agonist; HEK293): 1.04 nM
